Published values from different studies.
Several values in a cell are separate wells, animals, samples, runs or records.
Target: Proto-oncogene tyrosine-protein kinase ROS (ROS1, Homo sapiens, UniProt P08922)
UniProt P08922, sequence (whole entry, looked up): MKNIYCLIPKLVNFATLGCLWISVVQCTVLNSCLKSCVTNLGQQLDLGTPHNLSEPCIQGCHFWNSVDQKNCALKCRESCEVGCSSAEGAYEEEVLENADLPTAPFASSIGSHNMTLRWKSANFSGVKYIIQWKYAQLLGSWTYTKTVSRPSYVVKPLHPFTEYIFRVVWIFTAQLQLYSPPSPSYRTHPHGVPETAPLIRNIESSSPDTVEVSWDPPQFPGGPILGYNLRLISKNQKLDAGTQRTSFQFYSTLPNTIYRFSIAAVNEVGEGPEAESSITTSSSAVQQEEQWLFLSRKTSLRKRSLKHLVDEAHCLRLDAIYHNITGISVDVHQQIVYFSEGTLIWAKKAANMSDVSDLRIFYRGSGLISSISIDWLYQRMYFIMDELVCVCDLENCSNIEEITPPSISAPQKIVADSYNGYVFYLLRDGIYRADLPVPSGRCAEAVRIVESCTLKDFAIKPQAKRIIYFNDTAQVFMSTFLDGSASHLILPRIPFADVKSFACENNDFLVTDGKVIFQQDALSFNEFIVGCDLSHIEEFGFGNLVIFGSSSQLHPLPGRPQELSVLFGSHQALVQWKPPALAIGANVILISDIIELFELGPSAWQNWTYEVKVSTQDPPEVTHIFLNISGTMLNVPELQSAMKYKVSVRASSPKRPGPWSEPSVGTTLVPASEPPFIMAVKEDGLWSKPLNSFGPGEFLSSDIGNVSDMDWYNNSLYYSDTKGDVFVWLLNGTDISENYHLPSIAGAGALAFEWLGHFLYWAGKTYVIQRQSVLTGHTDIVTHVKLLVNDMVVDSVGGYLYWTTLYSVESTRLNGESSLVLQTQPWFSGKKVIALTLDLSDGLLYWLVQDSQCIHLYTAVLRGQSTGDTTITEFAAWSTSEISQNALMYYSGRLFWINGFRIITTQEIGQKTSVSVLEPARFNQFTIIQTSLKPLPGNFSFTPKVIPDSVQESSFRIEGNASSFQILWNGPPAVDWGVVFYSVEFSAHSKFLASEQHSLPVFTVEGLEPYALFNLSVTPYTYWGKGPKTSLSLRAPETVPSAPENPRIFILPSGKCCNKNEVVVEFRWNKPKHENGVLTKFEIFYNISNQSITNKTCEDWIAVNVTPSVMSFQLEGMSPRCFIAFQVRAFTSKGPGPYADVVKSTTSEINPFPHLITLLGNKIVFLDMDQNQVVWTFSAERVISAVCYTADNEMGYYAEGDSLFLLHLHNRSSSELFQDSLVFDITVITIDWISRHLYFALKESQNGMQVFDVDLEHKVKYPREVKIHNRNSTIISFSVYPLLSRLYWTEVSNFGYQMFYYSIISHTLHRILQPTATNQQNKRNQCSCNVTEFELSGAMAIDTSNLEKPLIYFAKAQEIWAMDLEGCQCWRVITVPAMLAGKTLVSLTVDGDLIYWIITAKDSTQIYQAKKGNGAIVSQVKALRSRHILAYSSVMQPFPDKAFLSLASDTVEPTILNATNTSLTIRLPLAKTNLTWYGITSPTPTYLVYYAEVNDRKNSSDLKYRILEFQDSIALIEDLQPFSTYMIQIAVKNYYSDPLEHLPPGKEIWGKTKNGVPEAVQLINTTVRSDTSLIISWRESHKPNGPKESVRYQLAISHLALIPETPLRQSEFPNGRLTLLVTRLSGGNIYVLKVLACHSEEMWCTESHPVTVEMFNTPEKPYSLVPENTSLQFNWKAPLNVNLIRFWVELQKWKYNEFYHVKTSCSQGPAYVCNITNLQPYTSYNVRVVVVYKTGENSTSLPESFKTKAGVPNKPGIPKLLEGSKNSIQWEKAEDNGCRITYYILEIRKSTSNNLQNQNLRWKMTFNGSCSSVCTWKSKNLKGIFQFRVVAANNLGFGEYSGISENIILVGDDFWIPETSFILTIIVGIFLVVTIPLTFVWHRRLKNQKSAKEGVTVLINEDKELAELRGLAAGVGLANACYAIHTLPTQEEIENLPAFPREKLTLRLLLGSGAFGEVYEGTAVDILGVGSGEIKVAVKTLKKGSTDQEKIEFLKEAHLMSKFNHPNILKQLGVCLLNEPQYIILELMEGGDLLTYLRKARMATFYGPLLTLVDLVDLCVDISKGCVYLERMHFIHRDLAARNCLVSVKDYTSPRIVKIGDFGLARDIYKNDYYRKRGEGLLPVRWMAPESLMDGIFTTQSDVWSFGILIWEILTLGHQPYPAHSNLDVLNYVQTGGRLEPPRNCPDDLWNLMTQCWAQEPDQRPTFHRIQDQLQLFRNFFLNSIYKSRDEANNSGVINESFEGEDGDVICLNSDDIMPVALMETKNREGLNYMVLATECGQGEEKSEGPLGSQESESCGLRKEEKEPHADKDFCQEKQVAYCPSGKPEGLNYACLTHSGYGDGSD

SMILES | assay | setting | scale | quantity | value
C=CC(=O)Nc1cccc(-c2cnc3[nH]cc(C(=O)NC(C)(C)C)c3n2)c1 | kinase activity | 0.1 µM |  | inhibition | 2% and 5%
COc1cc(Nc2nc(C)cc(-c3cnn4nc(OC)ccc34)n2)cc(C(F)(F)F)c1 | binding, competition with immobilised ligand | 1 µM |  | remaining binding | 91%
C=CC(=O)N1CCCC(n2c(=O)c3ncccc3n(Cc3ccc(Oc4ccccc4)cc3)c2=O)C1 (stereo not shown) | cell-free assay, competition with immobilised ligand | 1 µM |  | remaining binding | 99%
CN1CCN(Cc2ccc(-c3ccc(CO[C@H]4CCC[C@@H]4NC(=O)c4cc(-c5cnn(C)c5)cnc4N)cc3)cc2)CC1 | enzyme activity, inhibitor | 0.1 µM |  | inhibition | 3%
O=C(Nc1ccc(Oc2ncnc3[nH]cc(-c4ccccc4)c23)c(F)c1)c1c2n(n(-c3cc(F)ccc3F)c1=O)CCCC2 | enzyme activity, inhibitor | 0.5 µM |  | inhibition | -7%
C=CC(=O)N1CCc2ccc(-n3c(=O)ccc4cnc5ccc(-c6cnn(C)c6)cc5c43)cc21 | KINOMEscan | 1 µM | reference: DMSO control | remaining binding | 100%
CNC1C[S+]2CC[S+]3CC[S+](C1)[Ru-4]321([N]=C=S)[n]2c3ccc(OC)cc3c3c4c(c5cc(F)c[n+]1c5c32)C(=O)NC4=O (stereo not shown) | KinomeScan | 0.1 µM | reference: untreated | remaining binding | 100%
CCN1CCN(Cc2ccc(C(=O)Nc3ccc(C)c(NCc4cnc5[nH]ccc5c4OC)c3)cc2C(F)(F)F)CC1 | binding, competition with immobilised ligand | 1 µM |  | remaining binding | 97%
O=C(Cc1ccc(OCc2ccccc2)cc1)NC1(C(=O)O)CCN(C(=O)c2ccc(-c3cccc(Cl)c3)cc2)CC1 | enzyme activity, inhibitor | 10 µM |  | activity vs control | 108%
Cc1cccc(O[C@H]2CCC[C@@H](C(C)CNCc3ccncc3)C2)c1 (relative stereo) | cell-free assay | 10 µM |  | inhibition | -3%
Cc1ccc(-c2c(/C=C(\C#N)C(=O)NC(C)C)n(CCCO)c3ncnc(N)c23)cc1 | cell-free assay, competition with immobilised ligand | 1 µM |  | remaining binding | 88%
C[C@H]1CN(C(=O)c2cn(-c3ccnc(N)n3)c3cc(C#CC4(O)CCCCC4)ccc23)CCN1 | enzyme activity, inhibitor, FRET | 1 µM |  | inhibition | -3%
CCn1cc(C(=O)O)c(=O)c2c(N)c(F)c(NC3CCCCC3)cc21 | kinase activity | 0.1 µM, added: ATP at Km |  | inhibition | 0.5%
Cc1cnc2nc1Nc1cccc(c1)COC/C=C/COCc1cc(ccc1OCCN1CCOCC1)N2 | binding, competition with immobilised ligand | 0.1 µM |  | remaining binding | 63%
CNC(=O)C1CCN(c2cc(C)c(F)cc2NC(=O)c2ccc(-c3cc(O)ccc3C)c(C)c2)CC1 | binding, competition with immobilised ligand | 1 µM |  | remaining binding | 94%
NC(=O)[C@@H](O)C[C@H]1CCc2sc3ncnc(O[C@H]4CC[C@H](N5CCOCC5)CC4)c3c21 | enzyme activity, inhibitor | 10 µM |  | inhibition | 60%

A few entries again:
SMILES | assay | setting | scale | quantity | value
Cc1cnc2nc1Nc1cccc(c1)COC/C=C/COCc1cc(ccc1OCCN1CCOCC1)N2 | binding, competition with immobilised ligand | 0.1 µM |  | remaining binding | 63%
